Measurements gathered from unrelated publications.
Compare with care: the assays were run in different laboratories. ± marks the error that the study gave.

For `O=C(O)C1CN(Cc2ccc(-c3noc(-c4ccc(OCC[18F])c(C(F)(F)F)c4)n3)cc2)C1`, the tissue uptake was 0.413 ± 0.005 %ID/g (male Sprague-Dawley rat, lung; intravenous, 30 min).
`CCCC[C@H](NC(=O)CNC(=O)CNC(=O)CN1CCN(CC(=O)O)CCN(CC(=O)O)CC1)C(=O)N[C@H]1CC(=O)NCCCC[C@@H](C(N)=O)NC(=O)[C@H](Cc2c[nH]c3ccccc23)NC(=O)[C@H](CCCNC(=N)N)NC(=O)[C@@H](Cc2ccccc2)NC(=O)[C@H](Cc2c[nH]cn2)NC1=O` [copper-64 labelled] has a tissue uptake of 1.41 ± 0.7 %ID (C57 mouse female B16/F1 melanoma, intestines; intravenous, 0.037 MBq, 2 h).
With `CC(C)[C@H](NC(=O)[C@@H]1CCCN1C(=O)[C@H](CCCNC(=N)N)NC(=O)[C@H](CS)NC(=O)[C@H](Cc1c[nH]c2ccccc12)NC(=O)[C@H](CCCNC(=N)N)NC(=O)[C@@H](Cc1ccccc1)NC(=O)[C@H](Cc1c[nH]cn1)NC(=O)[C@H](CCC(=O)O)NC(=O)[C@H](CS)NC(=O)[C@H](CS)NC(=O)CNC(=O)[C@@H]1CC(=O)N[C@@H](CCCNC(=N)N)C(=O)NCC(=O)N[C@@H](CC(=O)O)C(=O)N[C@H](Cc2ccc(O)cc2)C(=O)N1)C(N)=O` [technetium-99m labelled] the tissue uptake was 2.56 ± 0.5 %ID/g (C57 mouse, female, B16/F1 melanoma, heart; intravenous, 0.037 MBq, 0.5 h).
The tissue uptake of `CCCC[C@@H]1NC(=O)[C@@H](NC(=O)[C@H](CCC(=O)O)NC(=O)CNC(=O)CN2CCN(CC(=O)O)CCN(CC(=O)O)CCN(CC(=O)O)CC2)CCCCNC(=O)C[C@@H](C(N)=O)NC(=O)[C@H](C(C)C)NC(=O)[C@@H]2CCCN2C(=O)[C@H](CCCNC(=N)N)NC(=O)CNC(=O)[C@H](Cc2c[nH]c3ccccc23)NC(=O)[C@H](CCCNC(=N)N)NC(=O)[C@@H](Cc2ccccc2)NC(=O)[C@H](Cc2c[nH]cn2)NC(=O)[C@H](CCC(=O)O)NC1=O` [gallium-67 labelled] is reported as 0.1 ± 0.02 %ID/g (C57 mice, B16/F1 flank melanoma, bone; intravenous, 0.037 MBq/mouse, 4 h).
For `OCc1cn(Cc2ccc(-c3noc(-c4ccc(OCC[18F])c(C(F)(F)F)c4)n3)cc2)nn1`, the tissue uptake was 0.57 ± 0.02 %ID/g (Lewis rat, female, brain; intravenous, 0.5 h).
`CCCC[C@H](NC(=O)CNC(=O)CNC(=O)CN1CCN(CC(=O)O)CCN(CC(=O)O)CCN(CC(=O)O)CC1)C(=O)N[C@H]1CC(=O)NCCCC[C@@H](C(N)=O)NC(=O)[C@H](Cc2c[nH]c3ccccc23)NC(=O)[C@H](CCCNC(=N)N)NC(=O)[C@@H](Cc2ccccc2)NC(=O)[C@H](Cc2c[nH]cn2)NC1=O` [copper-64 labelled] gave a tissue uptake of 1.12 ± 0.26 %ID/g (female C57 mouse, B16/F1 melanoma, spleen; intravenous, 0.037 MBq, 4 h).
For `CN1C(=O)[C@@H](Cc2ccc(O)c(I)c2)NC(=O)CNC(=O)[C@H](Cc2ccc3ccccc3c2)NC(=O)[C@H](CCCNC(=N)N)NC(=O)[C@H]1CCCNC(=O)c1ccc(CNC(=O)CN2CCN(CC(=O)O)CCN(CC(=O)O)CCN(CC(=O)O)CC2)cc1` [lutetium-177 labelled], the tissue uptake was 0.09 ± 0.02 %ID/g (measured: 177Lu radioactivity; female CB-17 SCID mice, Daudi xenograft, small intestine; intravenous, 0.16 nmol per mouse, 96 h).
The tissue uptake of `CCCC[C@H](NC(=O)CNC(=O)CNC(=O)CN1CCN(CC(=O)O)CCN(CC(=O)O)CC1)C(=O)N[C@H]1CC(=O)NCCCC[C@@H](C(N)=O)NC(=O)[C@H](Cc2c[nH]c3ccccc23)NC(=O)[C@H](CCCNC(=N)N)NC(=O)[C@@H](Cc2ccccc2)NC(=O)[C@H](Cc2c[nH]cn2)NC1=O` [gallium-67 labelled] is reported as 0.54 ± 0.05 %ID/g (female C57 mice, B16/F1 melanoma, liver; intravenous, 0.037 MBq, 4 h).
For `CN(C)c1ccc(-c2nc3ccc(OCCCCCN4CCN5CCN(CC4)CC(=O)[O][Al]([18F])[O]C(=O)C5)cc3s2)cc1`, the tissue uptake was 0.83 ± 0.14 %ID/g (ICR mouse, heart; intravenous, 30 min).
`CCCC[C@H](NC(=O)CNC(=O)CNC(=O)CN1CCN(CC(=O)O)CCN(CC(=O)O)CCN(CC(=O)O)CC1)C(=O)N[C@H]1CC(=O)NCCCC[C@@H](C(N)=O)NC(=O)[C@H](Cc2c[nH]c3ccccc23)NC(=O)[C@H](CCCNC(=N)N)NC(=O)[C@@H](Cc2ccccc2)NC(=O)[C@H](Cc2c[nH]cn2)NC1=O` [lead-203 labelled] has a tissue uptake of 1.67 ± 0.93 %ID/g (C57 mouse, stomach; intravenous, 0.056 MBq, 24 h).
`O=C([O-])c1cccc(CN(CCN(Cc2cn(Cc3ccccc3)nn2)Cc2cccc(C(=O)[O-])n2)Cc2cn(Cc3ccccc3)nn2)n1.[64Cu+2]` gave a tissue uptake of about 8 %ID/g (PET imaging; healthy female athymic nude mice, liver; 24 h).
`O=C([O-])CN1CCN(CC(=O)[O-])CCN(CC(=O)NCCc2ccc3c(c2)C2C=CCC2C(c2cc4c(cc2Br)OCO4)N3)CCN(CC(=O)[O-])CC1.[111In+3]` (centres unmarked) gave a tissue uptake of 0.43 ± 0.11 %ID/g (mouse, Hec50 endometrial tumour, muscle; 1 h post injection).
The tissue uptake of `CC(C)[C@H](NC(=O)[C@@H]1CCCN1C(=O)[C@H](CCCNC(=N)N)NC(=O)[C@H](CS)NC(=O)[C@H](Cc1c[nH]c2ccccc12)NC(=O)[C@H](CCCNC(=N)N)NC(=O)[C@@H](Cc1ccccc1)NC(=O)[C@H](Cc1c[nH]cn1)NC(=O)[C@H](CCC(=O)O)NC(=O)[C@H](CS)NC(=O)[C@H](CS)NC(=O)[C@@H]1CC(=O)N[C@@H](CCCNC(=N)N)C(=O)NCC(=O)N[C@@H](CC(=O)O)C(=O)N[C@H](Cc2ccc(O)cc2)C(=O)N1)C(N)=O` [technetium-99m labelled] is reported as 2.47 ± 0.2 %ID/g (C57 mouse, female, B16/F1 melanoma, liver; intravenous, 0.037 MBq, 2 h).
For `C[C@H](CN(C)Cc1ccccc1)NC(=O)c1ccc(-c2noc(C(F)(F)[18F])n2)cc1`, the tissue uptake was 0.59 ± 0.15 SUV (PET imaging; female Sprague-Dawley rats, muscle; intravenous, 30 min).

Excerpt of the above:
`CCCC[C@H](NC(=O)CNC(=O)CNC(=O)CN1CCN(CC(=O)O)CCN(CC(=O)O)CCN(CC(=O)O)CC1)C(=O)N[C@H]1CC(=O)NCCCC[C@@H](C(N)=O)NC(=O)[C@H](Cc2c[nH]c3ccccc23)NC(=O)[C@H](CCCNC(=N)N)NC(=O)[C@@H](Cc2ccccc2)NC(=O)[C@H](Cc2c[nH]cn2)NC1=O` [copper-64 labelled] gave a tissue uptake of 1.12 ± 0.26 %ID/g (female C57 mouse, B16/F1 melanoma, spleen; intravenous, 0.037 MBq, 4 h).
